Results from different studies.
Numbers after ± are the reported error.

| SMILES | test | test system | setting | scale | endpoint | value |
| --- | --- | --- | --- | --- | --- | --- |
| CC(C)=CCC[C@](C)(O[C@@H]1O[C@H](CO)[C@@H](O)[C@H](O)[C@H]1O)[C@H]1CC[C@]2(C)[C@@H]1[C@H](O)C[C@@H]1[C@@]3(C)CC[C@H](O[C@@H]4O[C@H](CO)[C@@H](O)[C@H](O)[C@H]4O)C(C)(C)[C@@H]3CC[C@]12C | LC-MS/MS | healthy female volunteers, serum | oral, 3 g red ginseng | – | AUC(0-t) | 8.7 ± 2.61 ng·h/mL |
| Cc1ccc(NC(=O)c2ccc(CN3CCN(C)CC3)cc2)cc1Nc1nccc(-c2cncc(-c3oncc3C)c2)n1 | – | healthy volunteers, plasma | oral, 12.5 mg once daily, day 1, 7-day dosing, mean | – | AUC(0-t) | 6700 ng·h/mL |
| Cc1nc(-c2ccc(OCC(C)C)c(C#N)c2)sc1C(=O)O | – | healthy Chinese adult volunteers, plasma | oral, 20 mg single dose, fed | – | AUC(0-t) | 2930 ± 752 ng·h/mL |
| CNC(=O)c1ccc(-c2cnc3ncc(Cc4ccc5ncccc5c4)n3n2)cc1F | – | mild hepatic impairment | oral, 200 mg, mean | – | AUC(0-t) | 4810 ng·h/mL |
| CC(C)(CC(=O)N1CCCC1)NCC(=O)N1C[C@@H](F)C[C@H]1C#N | – | Chinese type 2 diabetes patients, plasma | oral, 200 mg once daily, multiple doses | – | AUC(0-t) at steady state | 3700 ng·h/mL |
| CCCN1CC(c2ccc(S(C)(=O)=O)cc2)=C(c2ccc(C)cc2)C1=O | – | healthy Chinese subjects, elderly, plasma | oral, 100 mg single dose | baseline: non-elderly subjects | AUC(0-t) increase | 34% |
| CC(C)c1nc(CN(C)C(=O)N[C@H](C(=O)N[C@@H](Cc2ccccc2)C[C@H](O)[C@H](Cc2ccccc2)NC(=O)OCc2cncs2)C(C)C)cs1 | – | healthy men, plasma | 600 mg single dose, with: amenamevir 1200 mg | – | AUC(0-t) arithmetic mean | 78100 ng·h/mL |
| CC(C)=CCC[C@](C)(O[C@@H]1O[C@H](CO)[C@@H](O)[C@H](O)[C@H]1O)[C@H]1CC[C@]2(C)[C@@H]1[C@H](O)C[C@@H]1[C@@]3(C)CC[C@H](O[C@@H]4O[C@H](CO)[C@@H](O)[C@H](O)[C@H]4O[C@@H]4O[C@H](CO)[C@@H](O)[C@H](O)[C@H]4O)C(C)(C)[C@@H]3CC[C@]12C | LC-MS/MS | healthy male volunteers, serum | oral, 3 g red ginseng | – | AUC(0-t) | 6.93 ± 11.4 ng·h/mL |
| NC(=O)c1cnc2[nH]ccc2c1N[C@@H]1[C@@H]2CC3C[C@H]1C[C@@](O)(C3)C2 | – | healthy Japanese men, plasma | oral, 20 mg, single dose fasted | – | AUC(0-t) | 256 ng·h/mL |
